Results from different studies.
Protocols differ between the studies behind these lines. ± gives the spread as reported. Values after ≈ are worked out from the molar mass of the structure shown.

CCN(CC)CCCNC(=O)CSc1c2c(nc3cc(Cl)ccc13)CCCC2 — efficacy (SARS-CoV-2; cytopathic effect; USA_WA1/2020; round 2, 5-point): 95.5%
COCC(=O)N1CC(=O)N[C@@H](CC(C)C)c2nc(cs2)C(=O)N[C@@H](Cc2ccccc2)c2nc(C)nn2CC(=O)N[C@@H](C(C)C)C1 — remaining activity (Lassa mammarenavirus; viral replication; Huh-7; 10 µM, 72 h): 111%
CNCc1ccc(-c2cc(-c3nc(-c4ccc(S(=O)(=O)C(C)C)cc4)cnc3N)on2)cc1 — EC50 (SARS-CoV-2; viral replication, GFP plate reader screen; cell-based): > 5.01 µM
CCc1c(C(=O)C(N)=O)c2c(OCC(=O)O)cccc2n1Cc1ccccc1 — time to death (Daboia russelii; North population, mouse; 120 µg, venom preincubated, observed to 24 h): > 24 h
CC(C)C1CN(C(=O)CCc2cnccn2)CCCN1Cc1ccc(F)cc1 (centres unmarked) — remaining activity (Lassa mammarenavirus; viral replication; Huh-7; 10 µM, 72 h): 63%
O=C(NCCN1CCCCC1)c1ccc(-c2ccc(N3CCSCC3)nc2)cc1 — efficacy (SARS-CoV-2; cytopathic effect; USA_WA1/2020; retest, 8-point, duplicates): 81.1%
Cc1ccc(C(=O)Nc2ccc(CN3CCN(C)CC3)c(C(F)(F)F)c2)cc1C#Cc1cnc2cccnn12 — EC50 (SARS-CoV-2; viral replication, high-content imaging screen; cell-based): > 100 µM
O=C(c1cc(COc2ccc3ncccc3c2)on1)N1CCC(c2ccncc2)CC1 — remaining activity (Lassa mammarenavirus; viral replication; Huh-7; 10 µM, 72 h): 36%
CCCCN(CCCC)CCCNC(=O)c1cc(-c2ccc(Cl)s2)nc2ccccc12 — AC50 (SARS-CoV-2; cytopathic effect, cell-based CPE; USA_WA1/2020): 14.1 µM
CN(CC1CCOC2(CCN(C(=O)C3(c4ccccc4)CCCC3)CC2)C1)S(=O)(=O)CCCCl (centres unmarked) — EC50 (Venezuelan equine encephalitis virus; viral replication): 10 µM
CC(C)=CCc1c(O)ccc(C(=O)/C=C/c2ccc(O)cc2)c1O — CPE inhibition (SARS-CoV-2; viral replication; Vero E6; 12.5 µM): 0%
CN(C)C(=O)c1cc2cnc(Nc3ccc(N4CCNCC4)cn3)nc2n1C1CCCC1 — EC50 (SARS-CoV-2; viral replication, GFP plate reader screen; cell-based): > 100 µM
CCc1ccc(CN(C)Cc2c[nH]nc2-c2ccc(OC)cc2OC)cc1 — remaining activity (Lassa mammarenavirus; viral replication; Huh-7; 10 µM, 72 h): 53%
Cc1c(-c2ccc(O)cc2)n(Cc2ccc(OCCN3CCCCC3)cc2)c2ccc(O)cc12 — EC50 (SARS-CoV-2; viral replication, high-content imaging screen; cell-based): > 6.31 µM
O=c1ccn([C@@H]2O[C@](F)(CO)[C@@H](O)[C@H]2O)c(=O)[nH]1 — concentration abolishing replication (Lassa virus; ZsGreen reporter): 7.8 µM
O=C(Nc1ccc(N2CCN(C(=O)c3cnccn3)CC2)nc1)c1ccc(Cl)cc1 — IC90 (Mycobacterium tuberculosis; bacterial growth; H37Ra-lux; 168 h): > 64 µM
COc1cccc(-c2ccc(CN3CCCC(c4nc5ccc(C)cc5c(=O)[nH]4)C3)cc2)c1 (centres unmarked) — AC50 (SARS-CoV-2; cytopathic effect, cell-based CPE; USA_WA1/2020): 12.6 µM
NC(=O)C(c1ccccc1)(c1ccccc1)[C@@H]1CCN(CCc2ccc3c(c2)CCO3)C1 — EC50 (SARS-CoV-2; viral replication, GFP plate reader screen; cell-based): > 25.1 µM
O=C(NCc1cccs1)C1CCCN(Cc2cccc(-c3ccc(F)cc3F)c2)C1 (centres unmarked) — maximum response (SARS-CoV-2; cytopathic effect; USA_WA1/2020; round 1, 5-point): 72.7%
Nc1ncnc2c([C@@H]3N[C@H](CO)[C@@H](O)[C@H]3O)c[nH]c12 — inhibition (Zaire ebolavirus; viral replication; HeLa, Kikwit; 200 µM): 99.9%
Cc1ccc(-c2cccc(CN3CCCC(c4nc5ccc(C)cc5c(=O)[nH]4)C3)c2)c(C)c1 (centres unmarked) — efficacy (SARS-CoV-2; cytopathic effect; USA_WA1/2020; retest, 8-point, duplicates): 98%
CN(C)CCOC(C)(c1ccccc1)c1ccccn1 (centres unmarked) — IC50 (Marburg virus; HIV/MARV pseudovirion entry; A549; 48 h): > 100 µM
COc1cc2c(cc1OC)C(c1cccc(Cl)c1)=NN=C(C)C2 — EC50 (SARS-CoV-2; viral replication, GFP plate reader screen; cell-based): > 100 µM
O=C(NCc1ccccc1Cl)C1CCCN(Cc2cccc(-c3ccc(F)cc3F)c2)C1 (centres unmarked) — maximum response (SARS-CoV-2; cytopathic effect; USA_WA1/2020; retest, 8-point, duplicates): 44.2%
CC(C)(C)NC(=O)[C@@H]1C[C@@H]2CCCC[C@@H]2CN1C[C@@H](O)[C@H](Cc1ccccc1)NC(=O)[C@H](CC(N)=O)NC(=O)c1ccc2ccccc2n1 — EC50 (SARS-CoV-2; viral replication, GFP plate reader screen; cell-based): > 100 µM
Nc1ncnc2c1ncn2[C@@H]1O[C@@H]2COP(=O)(O)O[C@H]3[C@@H](O)[C@H](n4cnc5c(=O)[nH]cnc54)O[C@@H]3COP(=O)(O)O[C@H]2[C@H]1O — fold enrichment (Chikungunya virus; upregulated Reactome pathway, RNA sequencing, item: S Phase (R-HSA-69242); HFF-1; baseline: CHIKV-infected untreated): 2.33
O=C(CCC1CCCCC1)Nc1ncc(CC2CCCCC2)s1 — MIC (Histoplasma capsulatum; microbial growth): 2.5 to 5 µM (≈ 0.836 to 1.67 µg/mL)
CNC(=O)[C@@H](NC(=O)[C@H](CC(C)C)[C@H](O)C(=O)NO)C(C)(C)C — viability difference (Daboia russelii; C2C12; 100 µM, with: Daboia russelii venom RJ; baseline: venom alone): -17.8%
O=C1NCCCOc2cccc(c2)C2c3ccc(cc3CCN2C(=O)c2ccc(C(=O)N3CCOCC3)cc2)Oc2ccc(O)c1c2 (centres unmarked) — Emax (Lassa mammarenavirus; viral replication; Huh-7; concentration not given): 73.2%
Clc1cnn(CCCCN2CCN(c3ncccn3)CC2)c1 — EC50 (SARS-CoV-2; viral replication, high-content imaging screen; cell-based): > 100 µM
Cc1nc2sccn2c1C(=O)N1CCc2onc(-c3cccc(F)c3)c2C1 — remaining activity (Lassa mammarenavirus; viral replication; Huh-7; 10 µM, 72 h): 48%
NC(=O)c1ncn([C@@H]2O[C@H](CO)[C@@H](O)[C@H]2O)n1 — EC90 (SARS-CoV; virus yield; Urbani; 96 h): 545 ± 63 µM
O=C(/C=C/c1ccc(O)c(O)c1/C=C/c1ccc(O)c(O)c1)O[C@H](Cc1ccc(O)c(O)c1)C(=O)O — CPE inhibition (SARS-CoV-2; viral replication; Vero E6; 1.562 µM; baseline: mean of replicates): 0%
Cn1c(=O)ccc2ccc(F)c(CCNC[C@H]3CN(c4cnc5c(n4)NC(=O)CO5)C(=O)O3)c21 — MIC90 (Ralstonia pickettii): 0.06 µg/mL (≈ 0.128 µM)
Cc1ccc(C(=O)N2CC(=O)N[C@@H](CC(C)C)c3nc(cs3)C(=O)N[C@@H](Cc3ccccc3)c3nc(C)nn3CC(=O)N[C@@H](C(C)C)C2)cc1 — remaining activity (Lassa mammarenavirus; viral replication; Huh-7; 10 µM, 72 h): 92%
CC1CCCCN1CCCNC(=O)c1cc(Sc2cccc(Cl)c2)nc2ccccc12 (centres unmarked) — maximal response (SARS-CoV-2; cytopathic effect, cell-based CPE; USA_WA1/2020; round 2, 5-point dilution): 98%
O=C(NCc1ccccc1CN1CCCC1=O)c1cnn2cccnc12 — remaining activity (Lassa mammarenavirus; viral replication; Huh-7; 10 µM, 72 h): 66%
O=C(Nc1nc(C23CC4CC(CC(C4)C2)C3)cs1)c1ccccc1 — MIC (Histoplasma capsulatum; microbial growth): 5 to 20 µM (≈ 1.69 to 6.77 µg/mL)

Some of these lines once more:
O=C(c1cc(COc2ccc3ncccc3c2)on1)N1CCC(c2ccncc2)CC1 — remaining activity (Lassa mammarenavirus; viral replication; Huh-7; 10 µM, 72 h): 36%
O=C1NCCCOc2cccc(c2)C2c3ccc(cc3CCN2C(=O)c2ccc(C(=O)N3CCOCC3)cc2)Oc2ccc(O)c1c2 (centres unmarked) — Emax (Lassa mammarenavirus; viral replication; Huh-7; concentration not given): 73.2%
Cc1c(-c2ccc(O)cc2)n(Cc2ccc(OCCN3CCCCC3)cc2)c2ccc(O)cc12 — EC50 (SARS-CoV-2; viral replication, high-content imaging screen; cell-based): > 6.31 µM
Nc1ncnc2c([C@@H]3N[C@H](CO)[C@@H](O)[C@H]3O)c[nH]c12 — inhibition (Zaire ebolavirus; viral replication; HeLa, Kikwit; 200 µM): 99.9%
CN(C)C(=O)c1cc2cnc(Nc3ccc(N4CCNCC4)cn3)nc2n1C1CCCC1 — EC50 (SARS-CoV-2; viral replication, GFP plate reader screen; cell-based): > 100 µM
